Measured values of several laboratories.
Lines come from different studies, so protocols differ. Numbers after ± are the reported error.
Cell line: PC-3

COc1cc(CNC(=O)C[C@H](C)CCC=C(C)C)ccc1OCc1cn(-c2ccc(Br)cc2)nn1  growth percent (SRB; 10 µM, 48 h): 81.4%
COC(C(=NOCC(=O)Nc1ccncc1)C(O)C(C)O)C1Cc2cc3cc(OC4CC(OC5CC(O)C(O)C(C)O5)C(O)C(C)O4)c(C)c(O)c3c(O)c2C(=O)C1OC1CC(OC2CC(OC3CC(C)(O)C(O)C(C)O3)C(O)C(C)O2)C(O)C(C)O1 (stereo not shown)  GI50 (cell growth or viability; 72 h): 201 nM
CC1=C(C2=C(C)C(=O)c3c(cc(O)c(O)c3C(C)C)C2=O)C(=O)c2cc(O)c(O)c(C(C)C)c2C1=O (racemic)  EC50 (cell growth or viability, ATP luminescence; 72 h): 4670 nM
COc1cc(CNC(=O)C[C@H](C)CCC=C(C)C)ccc1OCc1cn(-c2ccccc2[N+](=O)[O-])nn1  growth percent (SRB; 10 µM, 48 h): 48.1%
C=CCON=C(C(O)C(C)O)C(OC)C1Cc2cc3cc(OC4CC(OC5CC(O)C(O)C(C)O5)C(O)C(C)O4)c(C)c(O)c3c(O)c2C(=O)C1OC1CC(OC2CC(OC3CC(C)(O)C(O)C(C)O3)C(O)C(C)O2)C(O)C(C)O1 (stereo not shown)  GI50 (cell growth or viability; 72 h): 155 nM
CCCCCCCCCC1N=C(N)N=C(N)N1c1ccc(Cl)cc1.Cl (racemic)  growth inhibition (concentration not given): ≤ 100%
CC(C)OC1(CO)CCC2C(C)(CO)C(O)CCC2(C)C1C=CC1=CCOC1=O (stereo not shown)  inhibition (cell growth or viability, MTT; 20 µM, 48 h): 55%
COC(C(=NOC(C)(C)C)C(O)C(C)O)C1Cc2cc3cc(OC4CC(OC5CC(O)C(O)C(C)O5)C(O)C(C)O4)c(C)c(O)c3c(O)c2C(=O)C1OC1CC(OC2CC(OC3CC(C)(O)C(O)C(C)O3)C(O)C(C)O2)C(O)C(C)O1 (stereo not shown)  GI50 (cell growth or viability; 72 h): 839 nM
CC(C)C[C@H](NC(=O)C[C@H](O)[C@H](CC(C)C)NC(=O)[C@H](Cc1c[nH]cn1)NC(=O)CNC(=O)[C@@H](NC(=O)[C@H](C)NC(=O)[C@H](Cc1c[nH]c2ccccc12)NC(=O)[C@H](CCC(N)=O)NC(=O)[C@@H](Cc1ccccc1)NC(=O)CCOCCOCCOCCNC(=O)CN1CCN(CC(=O)O)CCN(CC(=O)O)CC1)C(C)C)C(N)=O [gallium-68 labelled]  retained radioactivity (cellular efflux; concentration not given, 60 min efflux after 1 h loading): 50%
COC(C(=NOCCCCc1c[nH]c2ccccc12)C(O)C(C)O)C1Cc2cc3cc(OC4CC(OC5CC(O)C(O)C(C)O5)C(O)C(C)O4)c(C)c(O)c3c(O)c2C(=O)C1OC1CC(OC2CC(OC3CC(C)(O)C(O)C(C)O3)C(O)C(C)O2)C(O)C(C)O1 (stereo not shown)  GI50 (cell growth or viability; 72 h): 140 nM
COc1cc(CNC(=O)C[C@H](C)CCC=C(C)C)ccc1OCc1cn(-c2ccc([N+](=O)[O-])cc2)nn1  growth percent (SRB; 10 µM, 48 h): 85.5%
O=C(NO)c1ccc(Cn2sc3ccccc3c2=O)cc1  acetylated α-tubulin level (Western blot; concentration not given, 18 h): increased
CCCCCCCCCCCCCCCCCC(=O)N=C(N)NCCC[C@H](NC(=O)[C@H](CC(C)C)NC(=O)[C@@H](CC(C)C)NC(=O)[C@H](Cc1ccc(O)cc1)NC(=O)[C@H](CO)NC(=O)[C@H](Cc1c[nH]c2ccccc12)NC(=O)[C@H](Cc1c[nH]cn1)NC(=O)[C@@H]1CCC(=O)N1)C(=O)N1CCC[C@H]1C(=O)NCC  cell proliferation (WST-1; 50 µM, 4 days, 2D monolayer, daily dosing; reference: control): 98.9%
COC(C(=NOCCCc1c[nH]c2ccccc12)C(O)C(C)O)C1Cc2cc3cc(OC4CC(OC5CC(O)C(O)C(C)O5)C(O)C(C)O4)c(C)c(O)c3c(O)c2C(=O)C1OC1CC(OC2CC(OC3CC(C)(O)C(O)C(C)O3)C(O)C(C)O2)C(O)C(C)O1 (stereo not shown)  GI50 (cell growth or viability; 72 h): 69 nM
N=C(N)NCCC[C@@H]1NC(=O)[C@H](CCCCN)NC(=O)[C@@H](Cc2ccc(O)cc2)NC(=O)[C@H](CC(=O)O)NC(=O)CNC1=O  GI50 (cell growth or viability, MTT): 74400 nM
COC(C(=NOCC(=O)NCCc1ccccc1)C(O)C(C)O)C1Cc2cc3cc(OC4CC(OC5CC(O)C(O)C(C)O5)C(O)C(C)O4)c(C)c(O)c3c(O)c2C(=O)C1OC1CC(OC2CC(OC3CC(C)(O)C(O)C(C)O3)C(O)C(C)O2)C(O)C(C)O1 (stereo not shown)  GI50 (cell growth or viability; 72 h): 580 nM
O=C(O)CCC(NP(=O)(O)OCCC[C@@H](NC(=O)CC[C@H](NC(=O)CCCCCNC(=O)c1ccc([18F])cc1)C(=O)O)C(=O)O)C(=O)O (stereo partly shown)  cell uptake (concentration not given, 1 h): 0.04 ± 0.01%
CC(=C(c1ccc(O)cc1)c1ccc(Cl)cc1)c1ccc(Cl)cc1  GI50 (cell growth or viability): 770 nM
COc1cc(CNC(=O)C[C@H](C)CCC=C(C)C)ccc1O  growth percent (SRB; 10 µM, 48 h): 83.2%
CCCCCCCCCCCC(=O)N=C(N)NCCC[C@H](NC(=O)[C@H](CC(C)C)NC(=O)[C@@H](CC(C)C)NC(=O)[C@H](Cc1ccc(O)cc1)NC(=O)[C@H](CO)NC(=O)[C@H](Cc1c[nH]c2ccccc12)NC(=O)[C@H](Cc1c[nH]cn1)NC(=O)[C@@H]1CCC(=O)N1)C(=O)N1CCC[C@H]1C(=O)NCC  cell proliferation (WST-1; 50 µM, 4 days, 2D monolayer, daily dosing; reference: control): 75%
Cc1ccc(C(C)C)cc1.O=C([N-]c1nc2ccccc2[nH]1)c1cnccn1.[Cl-].[Ru+2]  selectivity index (cytotoxicity, MTT; reference: KMST-6 over PC-3): > 2
COc1cc(/C=C/C(=O)/C=C(O)/C=C/c2ccc(OCC(=O)N3CCOCCOCCOCCOCC3)c(OC)c2)ccc1OCC(=O)N1CCOCCOCCOCCOCC1  inhibition (cell growth or viability, SRB; 5 µM): 11.4%
CC(=O)OC[C@H]1O[C@@H](Sc2sc(C(=O)c3ccc(Br)cc3)c(N)c2-c2nc3ccccc3s2)[C@H](OC(C)=O)[C@@H](OC(C)=O)[C@@H]1OC(C)=O  growth (SRB; 10 µM, 48 h; reference: untreated): 90.8%
CC1(CO)C(O)CCC2(C)C(C=CC3=CCOC3=O)C(CO)=CCC12 (stereo not shown)  inhibition (cell growth or viability, MTT; 20 µM, 48 h): 0%
CC/C=C\C/C=C\C/C=C\C/C=C\C/C=C\C/C=C\CCC(=O)Nc1ccn(C2OC(CO)C(O)C2(F)F)c(=O)n1 (stereo not shown)  TGI (NCI60 screen): 27000 nM
COC(C(=NOCC(=O)Nc1ccccc1)C(O)C(C)O)C1Cc2cc3cc(OC4CC(OC5CC(O)C(O)C(C)O5)C(O)C(C)O4)c(C)c(O)c3c(O)c2C(=O)C1OC1CC(OC2CC(OC3CC(C)(O)C(O)C(C)O3)C(O)C(C)O2)C(O)C(C)O1 (stereo not shown)  GI50 (cell growth or viability; 72 h): 55 nM
C=C1CC(OC(=O)C(C)(O)CCl)C2C(=C)C(=O)OC2C2C1CC(O)C2(O)CCl (stereo not shown)  cells in S phase (flow cytometry; IC50, 48 h): 48.4 ± 1.7%
CN(C)c1cccc2c(S(=O)(=O)NCCCCCC(=O)NO)cccc12  cells in G2 phase (propidium iodide flow cytometry; 1.54 µM): 15.7%
CC(=O)OC[C@H]1O[C@@H](Sc2sc(C(=O)c3ccc(C)cc3)c(N)c2-c2nc3ccccc3s2)[C@H](OC(C)=O)[C@@H](OC(C)=O)[C@@H]1OC(C)=O  growth (SRB; 10 µM, 48 h; reference: untreated): 63.2%
Cc1nn(-c2ccc(S(=O)(=O)N[C@H](CO)CC(C)C)cc2)c2nn3nnnc3nc12  apoptotic cells (PI/Hoechst staining; 2 µM, 24 h): 17 ± 1.4%
COc1cc(CNC(=O)C[C@H](C)CCC=C(C)C)ccc1OCc1cn(-c2cccc(C(F)(F)F)c2)nn1  growth percent (SRB; 10 µM, 48 h): 82.5%
COC(C(=NOCC(=O)Nc1cncnc1)C(O)C(C)O)C1Cc2cc3cc(OC4CC(OC5CC(O)C(O)C(C)O5)C(O)C(C)O4)c(C)c(O)c3c(O)c2C(=O)C1OC1CC(OC2CC(OC3CC(C)(O)C(O)C(C)O3)C(O)C(C)O2)C(O)C(C)O1 (stereo not shown)  GI50 (cell growth or viability; 72 h): 985 nM
CC12COC(c3ccccc3)OC1CCC1(C)C(C=CC3=CCOC3=O)C(CO)=CCC21 (stereo not shown)  inhibition (cell growth or viability, MTT; 20 µM, 48 h): 0%
COc1cc(CNC(=O)C[C@H](C)CCC=C(C)C)ccc1OCc1cn(-c2ccc(Cl)c(Cl)c2)nn1  growth percent (SRB; 10 µM, 48 h): 65.9%
CC(Cc1ccc(Cl)cc1)=C(c1ccc(Cl)cc1)c1ccc(OCCN(C)C)cc1  GI50 (cell growth or viability): 4340 nM
COc1cc(CNC(=O)C[C@H](C)CCC=C(C)C)ccc1OCc1cn(-c2cccc([N+](=O)[O-])c2)nn1  growth percent (SRB; 10 µM, 48 h): 75.7%
C[N+]1(CC(=O)OC2CCCCCCCCCCC2)CCCCC1  ED50 (cell viability, CellTiter Blue; 96 h): 6100 nM

For quick reference, copied from above:
C[N+]1(CC(=O)OC2CCCCCCCCCCC2)CCCCC1  ED50 (cell viability, CellTiter Blue; 96 h): 6100 nM
CC(=O)OC[C@H]1O[C@@H](Sc2sc(C(=O)c3ccc(Br)cc3)c(N)c2-c2nc3ccccc3s2)[C@H](OC(C)=O)[C@@H](OC(C)=O)[C@@H]1OC(C)=O  growth (SRB; 10 µM, 48 h; reference: untreated): 90.8%
CCCCCCCCCC1N=C(N)N=C(N)N1c1ccc(Cl)cc1.Cl (racemic)  growth inhibition (concentration not given): ≤ 100%
CC12COC(c3ccccc3)OC1CCC1(C)C(C=CC3=CCOC3=O)C(CO)=CCC21 (stereo not shown)  inhibition (cell growth or viability, MTT; 20 µM, 48 h): 0%
